Experimental data gathered from unrelated publications.
A part holds a random share of what one study measured. Changes are numbered by the printed parent chain.

Block 1
Target: Prothrombin, mature alpha-thrombin (F2, Homo sapiens, UniProt P00734)
Method: aptamer microarray, sandwich
Molecule type: DNA with 2'F-ANA
Medium: in vitro
Tested at: 200 nM
Setting: whole 15-mer aptamer, many near background
Together with: Cy3 exosite-II aptamer, 400 nM
Reading: higher = stronger binding
Strand: GGTTGGTGTGGTTGG
Modification	mean fluorescence intensity [a.u.]
2'F-ANA at 3 4 5 10 15	59.5
2'F-ANA at 1 4 6 7 8 10 11 13 14	61.4
2'F-ANA at 1 5 6 9 10 12 14 15	44.6
2'F-ANA at 2 4 6 8 9 10 11 12 13 14	59.2
2'F-ANA at 1 4 10 11 13 14	67.2
2'F-ANA at 2 3 4 7 10 11 12 13	277
2'F-ANA at 6 7 8 10 11 12 13 15	170
2'F-ANA at 2 3 4 9 11 12 13 15	550

Block 2
Target: CEBPB, bZIP domain (human)
Method: DHFR protein complementation
Medium: yeast
Setting: single substitutions, most at no-binding floor
Baseline: wild-type JUN-FOS pair
Reading: higher = stronger binding
Parent: JUN, bZIP domain (human); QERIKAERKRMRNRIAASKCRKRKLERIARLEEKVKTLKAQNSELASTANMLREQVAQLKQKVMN; partner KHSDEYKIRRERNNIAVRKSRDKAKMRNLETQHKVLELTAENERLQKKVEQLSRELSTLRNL
Substitution	binding fitness [natural log]
L45Q	-1.47
V35T	-1.43
A49P	-1.52
E44N	-1.47
A29K	-1.38
K34A	-1.34
E33D	-1.33
E33F	-1.46

Block 3
Target: Interferon regulatory factor 5, full length, phosphomimetic (IRF5, Homo sapiens, UniProt Q13568-2, residues 1-514, S451D/S453D/S456D/S462D)
Method: protein-binding microarray
Molecule type: double-stranded DNA, one strand shown
Medium: in vitro
Tested at: 940 nM top
Setting: 60-bp whole probe
Together with: salmon DNA 0.4 mg/ml
Baseline: random background probes
Reading: higher = stronger binding
Constant ends, left off below: GCCTAGCAC … GTCTTGATTCGCTTGACGCTGCTG
Strand	fitted relative affinity [z-score]
TTAGAACTGAGTAACGATTAGTGCTAG	-0.0819
TTAGGTATCGGTTTCGGTTAGTGCTAG	13
TACGGTCTCGGTTTCGGGACGTGCTAG	5.9
CTCTGTCTAAAATTGTTAAAGTGCTAG	0.423
TCAATATTCATTTTATTACTGTGCTAG	0.757
GACGATTCCAGTTTCGATACGTGCTAG	7.9
TTCGAACTGAGTCTCGATTAGTGCTAG	2.85
CCGAAAATGCCCTTTTGGTGAGTGCTA	0.276

Single results of other studies
Parent: PafA, mature enzyme, eGFP fusion (Elizabethkingia meningoseptica, UniProt Q9KJX5); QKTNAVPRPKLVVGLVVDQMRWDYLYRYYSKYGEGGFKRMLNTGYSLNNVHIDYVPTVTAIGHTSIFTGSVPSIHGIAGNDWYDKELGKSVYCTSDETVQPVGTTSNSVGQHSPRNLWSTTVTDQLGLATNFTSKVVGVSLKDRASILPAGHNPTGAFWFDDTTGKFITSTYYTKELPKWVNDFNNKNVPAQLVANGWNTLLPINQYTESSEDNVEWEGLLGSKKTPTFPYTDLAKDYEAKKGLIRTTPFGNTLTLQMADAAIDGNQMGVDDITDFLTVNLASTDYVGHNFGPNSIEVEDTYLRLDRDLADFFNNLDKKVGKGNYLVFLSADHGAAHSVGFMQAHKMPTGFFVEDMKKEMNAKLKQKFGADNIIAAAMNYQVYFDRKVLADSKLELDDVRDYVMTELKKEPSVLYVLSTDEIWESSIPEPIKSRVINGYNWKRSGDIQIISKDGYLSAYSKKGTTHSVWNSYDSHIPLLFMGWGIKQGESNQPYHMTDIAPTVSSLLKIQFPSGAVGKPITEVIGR
Substitution	target	assay	test system	conditions	scale	measurement	result
D371V	vanadate, free oxyanion	microfluidic competitive inhibition	in vitro, cell-free expressed	not given, derived from inhibition constants, unchanged parent 676 nM	lower = stronger binding	oxyanion analog dissociation constant	755 nM
